{"data": "Experimental data pooled from the literature", "note": "A part holds a random share of what one study measured.", "UniProt Q13464, sequence (whole entry, looked up)": "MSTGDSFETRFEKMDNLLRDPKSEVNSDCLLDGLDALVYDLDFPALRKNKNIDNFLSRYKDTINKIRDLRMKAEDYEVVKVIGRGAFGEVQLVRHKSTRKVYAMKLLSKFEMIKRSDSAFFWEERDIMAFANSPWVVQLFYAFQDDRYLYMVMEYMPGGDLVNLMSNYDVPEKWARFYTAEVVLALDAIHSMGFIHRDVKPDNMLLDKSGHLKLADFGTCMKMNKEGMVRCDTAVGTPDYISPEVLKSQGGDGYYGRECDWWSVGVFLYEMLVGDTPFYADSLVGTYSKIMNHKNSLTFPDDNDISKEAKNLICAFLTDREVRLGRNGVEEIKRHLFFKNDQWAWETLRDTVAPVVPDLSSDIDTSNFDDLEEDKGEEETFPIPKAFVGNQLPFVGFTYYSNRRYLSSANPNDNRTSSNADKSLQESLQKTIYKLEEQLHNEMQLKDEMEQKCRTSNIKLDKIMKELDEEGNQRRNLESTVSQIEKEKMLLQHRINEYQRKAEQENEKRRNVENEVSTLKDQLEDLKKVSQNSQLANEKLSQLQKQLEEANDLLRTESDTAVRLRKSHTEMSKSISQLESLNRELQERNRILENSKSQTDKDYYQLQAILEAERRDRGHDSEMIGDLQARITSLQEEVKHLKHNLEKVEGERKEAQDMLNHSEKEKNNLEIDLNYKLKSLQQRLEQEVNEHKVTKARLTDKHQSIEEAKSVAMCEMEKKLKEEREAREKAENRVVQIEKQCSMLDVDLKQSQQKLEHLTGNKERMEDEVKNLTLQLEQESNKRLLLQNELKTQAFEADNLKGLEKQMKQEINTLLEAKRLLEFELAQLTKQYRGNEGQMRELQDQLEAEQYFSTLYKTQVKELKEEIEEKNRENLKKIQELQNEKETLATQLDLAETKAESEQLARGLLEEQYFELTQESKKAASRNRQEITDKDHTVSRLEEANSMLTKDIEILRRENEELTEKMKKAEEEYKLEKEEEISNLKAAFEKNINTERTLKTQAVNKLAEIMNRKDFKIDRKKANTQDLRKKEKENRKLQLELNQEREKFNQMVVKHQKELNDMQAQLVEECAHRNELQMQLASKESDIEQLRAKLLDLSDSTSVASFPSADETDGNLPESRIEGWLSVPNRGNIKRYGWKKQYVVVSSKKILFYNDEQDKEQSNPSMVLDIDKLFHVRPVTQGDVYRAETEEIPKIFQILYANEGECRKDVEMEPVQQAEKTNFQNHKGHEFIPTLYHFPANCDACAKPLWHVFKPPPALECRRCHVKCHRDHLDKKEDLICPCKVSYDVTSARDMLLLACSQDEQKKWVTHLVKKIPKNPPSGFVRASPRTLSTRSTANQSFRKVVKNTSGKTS", "UniProt Q6ZWH5, sequence (whole entry, looked up)": "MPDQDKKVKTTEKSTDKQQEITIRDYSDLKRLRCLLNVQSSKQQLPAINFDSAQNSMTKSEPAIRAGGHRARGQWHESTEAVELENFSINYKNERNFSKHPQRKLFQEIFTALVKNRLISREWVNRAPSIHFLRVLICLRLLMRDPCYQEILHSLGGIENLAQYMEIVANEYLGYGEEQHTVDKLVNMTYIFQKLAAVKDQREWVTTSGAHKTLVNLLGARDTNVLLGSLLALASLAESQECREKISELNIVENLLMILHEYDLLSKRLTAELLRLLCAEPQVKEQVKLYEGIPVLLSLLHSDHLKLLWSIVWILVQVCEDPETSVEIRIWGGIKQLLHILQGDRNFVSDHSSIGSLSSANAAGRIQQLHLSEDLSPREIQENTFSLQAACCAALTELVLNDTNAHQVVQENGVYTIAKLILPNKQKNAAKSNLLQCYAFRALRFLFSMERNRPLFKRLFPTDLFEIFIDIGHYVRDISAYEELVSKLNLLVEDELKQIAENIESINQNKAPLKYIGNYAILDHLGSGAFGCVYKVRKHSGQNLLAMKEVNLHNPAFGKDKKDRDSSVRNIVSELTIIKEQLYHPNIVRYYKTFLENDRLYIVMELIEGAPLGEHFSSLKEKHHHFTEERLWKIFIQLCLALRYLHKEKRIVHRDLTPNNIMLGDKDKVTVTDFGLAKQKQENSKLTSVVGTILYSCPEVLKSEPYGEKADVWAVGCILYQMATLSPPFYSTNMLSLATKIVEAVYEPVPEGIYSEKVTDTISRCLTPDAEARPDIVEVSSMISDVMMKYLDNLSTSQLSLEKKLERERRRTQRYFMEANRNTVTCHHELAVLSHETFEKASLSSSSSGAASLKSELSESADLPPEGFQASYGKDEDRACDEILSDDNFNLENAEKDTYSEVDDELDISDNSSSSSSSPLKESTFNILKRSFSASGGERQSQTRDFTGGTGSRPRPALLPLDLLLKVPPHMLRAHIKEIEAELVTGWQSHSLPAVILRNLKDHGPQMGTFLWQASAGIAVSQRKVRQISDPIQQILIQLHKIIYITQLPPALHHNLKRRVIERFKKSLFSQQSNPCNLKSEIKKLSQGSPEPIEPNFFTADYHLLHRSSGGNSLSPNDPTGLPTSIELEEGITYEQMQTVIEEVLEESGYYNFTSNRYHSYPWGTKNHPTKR", "UniProt Q9H2X6, sequence (whole entry, looked up)": "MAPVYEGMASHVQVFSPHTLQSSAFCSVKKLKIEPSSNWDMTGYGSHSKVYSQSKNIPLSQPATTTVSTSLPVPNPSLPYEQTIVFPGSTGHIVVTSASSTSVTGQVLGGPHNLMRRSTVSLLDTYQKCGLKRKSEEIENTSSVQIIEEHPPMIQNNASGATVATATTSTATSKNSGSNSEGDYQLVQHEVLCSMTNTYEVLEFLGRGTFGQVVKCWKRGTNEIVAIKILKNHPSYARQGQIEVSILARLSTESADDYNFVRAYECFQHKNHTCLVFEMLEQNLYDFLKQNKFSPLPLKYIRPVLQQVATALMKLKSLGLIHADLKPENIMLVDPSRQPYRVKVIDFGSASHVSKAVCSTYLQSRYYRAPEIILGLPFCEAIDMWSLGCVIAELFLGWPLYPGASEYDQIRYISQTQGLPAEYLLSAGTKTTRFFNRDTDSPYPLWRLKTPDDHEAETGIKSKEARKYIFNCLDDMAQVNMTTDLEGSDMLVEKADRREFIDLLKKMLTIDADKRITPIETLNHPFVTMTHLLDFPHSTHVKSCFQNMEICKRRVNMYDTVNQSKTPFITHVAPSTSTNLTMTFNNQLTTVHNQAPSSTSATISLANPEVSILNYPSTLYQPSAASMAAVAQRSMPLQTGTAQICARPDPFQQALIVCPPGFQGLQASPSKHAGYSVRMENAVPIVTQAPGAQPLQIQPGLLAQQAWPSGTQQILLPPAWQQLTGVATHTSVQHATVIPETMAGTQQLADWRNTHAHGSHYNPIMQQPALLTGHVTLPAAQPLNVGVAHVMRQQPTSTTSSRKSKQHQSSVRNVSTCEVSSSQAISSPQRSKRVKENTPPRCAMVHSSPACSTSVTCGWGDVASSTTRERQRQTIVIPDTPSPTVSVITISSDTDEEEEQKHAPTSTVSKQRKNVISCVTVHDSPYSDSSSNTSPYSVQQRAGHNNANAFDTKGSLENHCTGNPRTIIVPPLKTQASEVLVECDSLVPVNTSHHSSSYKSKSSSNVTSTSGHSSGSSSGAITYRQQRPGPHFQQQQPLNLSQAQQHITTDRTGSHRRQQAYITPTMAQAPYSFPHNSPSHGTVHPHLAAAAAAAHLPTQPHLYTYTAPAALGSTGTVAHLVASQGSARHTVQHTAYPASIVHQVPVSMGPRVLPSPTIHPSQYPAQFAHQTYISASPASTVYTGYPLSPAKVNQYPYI", "UniProt P36507, sequence (whole entry, looked up)": "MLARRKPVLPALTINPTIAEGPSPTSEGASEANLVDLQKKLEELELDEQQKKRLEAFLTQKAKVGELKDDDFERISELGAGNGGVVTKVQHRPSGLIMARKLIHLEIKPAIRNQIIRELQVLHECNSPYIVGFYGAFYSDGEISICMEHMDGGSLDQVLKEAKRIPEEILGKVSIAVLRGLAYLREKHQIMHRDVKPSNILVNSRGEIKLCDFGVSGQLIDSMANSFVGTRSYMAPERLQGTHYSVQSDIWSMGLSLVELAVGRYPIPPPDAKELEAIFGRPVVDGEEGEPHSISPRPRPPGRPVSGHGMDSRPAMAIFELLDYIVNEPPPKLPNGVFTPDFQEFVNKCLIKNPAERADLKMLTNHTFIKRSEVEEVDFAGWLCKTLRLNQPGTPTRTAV"}
{"data": "Sample 1", "SMILES": "CC(C)n1cnc(-c2ccc(F)cc2)c1-c1ncc(C(=O)Nc2ccc(N3CCN(C)CC3)cc2)[nH]1", "method": "phase 2a trial", "species": "idiopathic pulmonary fibrosis patients"}
{"dose": "60 mg once daily", "notes": "adverse event grade 2", "patients with cardiac failure": "0%"}
{"dose": "dose not given", "notes": "adverse event grade 4, all dose arms pooled", "patients with cardiac failure": "0%"}
{"dose": "30 mg once daily", "notes": "adverse event grade 3", "patients with cardiac failure": "0%"}
{"dose": "30 mg once daily", "notes": "adverse event grade 1", "patients with cardiac failure": "0%"}
{"data": "Sample 2", "target": "NT-3 growth factor receptor (NTRK3, Homo sapiens, UniProt Q16288)", "read-out": "enzyme activity", "mode": "inhibitor", "tested at": "0.5 µM", "baseline": "control", "UniProt Q16288, sequence (whole entry, looked up)": "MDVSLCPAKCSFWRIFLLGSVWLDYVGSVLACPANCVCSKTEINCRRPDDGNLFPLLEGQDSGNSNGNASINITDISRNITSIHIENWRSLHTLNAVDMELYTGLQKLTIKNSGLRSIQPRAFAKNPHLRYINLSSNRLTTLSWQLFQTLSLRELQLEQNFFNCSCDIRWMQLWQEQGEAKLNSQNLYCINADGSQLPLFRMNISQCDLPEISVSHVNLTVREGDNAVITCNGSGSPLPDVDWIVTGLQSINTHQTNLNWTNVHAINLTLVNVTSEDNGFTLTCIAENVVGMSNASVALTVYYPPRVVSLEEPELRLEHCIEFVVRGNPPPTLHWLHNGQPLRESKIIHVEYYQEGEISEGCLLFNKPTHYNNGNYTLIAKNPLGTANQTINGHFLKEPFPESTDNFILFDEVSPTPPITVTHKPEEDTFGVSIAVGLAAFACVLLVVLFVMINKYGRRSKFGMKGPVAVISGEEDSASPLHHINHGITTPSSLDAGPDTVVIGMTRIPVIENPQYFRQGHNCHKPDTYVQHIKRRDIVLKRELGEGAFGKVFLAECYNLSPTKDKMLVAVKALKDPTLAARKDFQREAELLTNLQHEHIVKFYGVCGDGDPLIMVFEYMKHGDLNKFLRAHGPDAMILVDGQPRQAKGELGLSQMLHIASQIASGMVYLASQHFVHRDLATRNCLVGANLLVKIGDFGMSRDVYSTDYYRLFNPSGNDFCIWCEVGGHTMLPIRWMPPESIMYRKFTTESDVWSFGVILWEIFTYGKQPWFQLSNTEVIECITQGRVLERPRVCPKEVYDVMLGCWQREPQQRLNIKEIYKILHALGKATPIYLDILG"}
{"SMILES": "Cc1cc2ncc(-c3ccccc3)nc2cc1C", "remaining activity [%]": 88.2}
{"SMILES": "CCOc1nc(NC(=O)Cc2cc(OC)ccc2OC)cc(N)c1C#N", "remaining activity [%]": 102}
{"SMILES": "CCN(CC)CCNC(=O)c1c(C)[nH]c(/C=C2\\C(=O)Nc3ccc(Cl)cc32)c1C", "remaining activity [%]": 1.87}
{"SMILES": "CN(C)C[C@H]1CCn2c(c(C3=C(c4cn(C)c5ccccc45)C(=O)NC3=O)c3ccccc32)C1", "remaining activity [%]": 75}
{"SMILES": "CCN(CC)C(=O)c1ccc(Nc2nc(OCC3CCCCC3)c3[nH]cnc3n2)cc1", "remaining activity [%]": 32.3}
{"SMILES": "Nc1cccc(-c2cc3c(Oc4cccc(O)c4)ncnc3[nH]2)c1", "remaining activity [%]": 63.3}
{"SMILES": "CN([C@@H](Cc1ccc(OS(=O)(=O)c2cccc3cnccc23)cc1)C(=O)N1CCN(c2ccccc2)CC1)S(=O)(=O)c1cccc2cnccc12", "remaining activity [%]": 97.5}
{"SMILES": "COc1cc2c(cc1OC)-c1[nH]nc(Nc3cccc(F)c3)c1C2", "remaining activity [%]": 72.6}
{"SMILES": "Ic1cccc(CSc2nnc(-c3ccncc3)o2)c1", "remaining activity [%]": 104}
{"SMILES": "Cn1nc2c3c(cccc31)C(=O)c1ccccc1-2", "remaining activity [%]": 71.6}
{"SMILES": "O=C(NC(NC(=S)Nc1ccc(F)c([N+](=O)[O-])c1)C(Cl)(Cl)Cl)C(c1ccccc1)c1ccccc1 (stereo not drawn)", "remaining activity [%]": 108}
{"SMILES": "O=C1c2ccccc2-c2n[nH]c3cccc1c23", "remaining activity [%]": 27.3}
{"SMILES": "O=c1cc(-c2cccc3c2Sc2ccccc2S3)oc(N2CCOCC2)c1", "remaining activity [%]": 99.7}
{"SMILES": "COc1cc2ncnc(Nc3ccc(O)c(Br)c3)c2cc1OC", "remaining activity [%]": 83.4}
{"SMILES": "N#C/C(=C\\c1ccc(O)c(O)c1)C(=O)NCc1ccccc1", "remaining activity [%]": 98.8}
{"SMILES": "O=C(Nc1cccc(Nc2nccc(Nc3cccc(C(F)(F)F)c3)n2)c1)C1CC1", "remaining activity [%]": 77.3}
{"SMILES": "Cc1nc2cc3nc(-c4cccs4)cnc3cc2n1C", "remaining activity [%]": 59.9}
{"SMILES": "COc1cc2ncnc(Nc3cccc(Cl)c3)c2cc1OC", "remaining activity [%]": 86.3}
{"SMILES": "c1ccc(-c2cnc(Nc3ccc(OCCN4CCCC4)cc3)s2)cc1", "remaining activity [%]": 22.6}
{"SMILES": "O=C1C(Cl)=C(N2C(=O)CCC2=O)C(=O)c2ccccc21", "remaining activity [%]": 98.6}
{"data": "Sample 3", "Structure (SMILES)": "CC(=O)C1=C(C)N(c2cccc(C(F)(F)F)c2)C(=O)N[C@@H]1c1ccc(C#N)nc1", "method": "competition with immobilised ligand", "tested at": "1 µM"}
{"target": "CIT (Homo sapiens, UniProt O14578)", "read-out": "cell-free assay", "remaining binding": "77.6%"}
{"target": "ERBB3 (Homo sapiens, UniProt P21860)", "read-out": "cell-free assay", "remaining binding": "100%"}
{"target": "SNRK (Homo sapiens, UniProt Q9NRH2)", "read-out": "cell-free assay", "remaining binding": "100%"}
{"target": "MAP2K2 (Homo sapiens, UniProt P36507)", "read-out": "cell-free assay", "remaining binding": "84.2%"}
{"target": "NEK10 (Homo sapiens, UniProt Q6ZWH5)", "read-out": "cell-free assay", "remaining binding": "96.4%"}
{"target": "CDKL1 (Homo sapiens, UniProt Q00532)", "read-out": "cell-free assay", "remaining binding": "80.9%"}
{"target": "CSNK1A1 (Homo sapiens, UniProt P48729)", "read-out": "cell-free assay", "remaining binding": "91.5%"}
{"target": "DYRK1A (Homo sapiens, UniProt Q13627)", "read-out": "cell-free assay", "remaining binding": "100%"}
{"target": "PIK3CD (Homo sapiens, UniProt O00329)", "read-out": "cell-free assay", "remaining binding": "89.8%"}
{"target": "RIPK1 (Homo sapiens, UniProt Q13546)", "read-out": "cell-free assay", "remaining binding": "85.8%"}
{"target": "PIK3C2B (Homo sapiens, UniProt O00750)", "read-out": "cell-free assay", "remaining binding": "100%"}
{"target": "ROCK1 (Homo sapiens, UniProt Q13464)", "read-out": "cell-free assay", "remaining binding": "100%"}
{"target": "EGFR (Homo sapiens, UniProt P00533, G719S)", "read-out": "cell-free assay", "remaining binding": "100%"}
{"target": "BRSK1 (Homo sapiens, UniProt Q8TDC3)", "read-out": "cell-free assay", "remaining binding": "100%"}
{"target": "HIPK2 (Homo sapiens, UniProt Q9H2X6)", "read-out": "cell-free assay", "remaining binding": "94.3%"}
{"target": "CILK1 (Homo sapiens, UniProt Q9UPZ9)", "read-out": "binding", "remaining binding": "100%"}
{"data": "Sample 4", "cell line": "HaCaT", "tested at": "100 µM", "time": "18 h"}
{"Compound": "Nc1cc(N2CCCCC2)nc(N)[n+]1[O-]", "viability": "110%"}
{"Compound": "C/C=C1\\[C@H]2C=C(C)C[C@]1(N)c1ccc(=O)[nH]c1C2", "viability": "108%"}
{"Compound": "N#CCC(C1CCCC1)n1cc(-c2ncnc3[nH]ccc23)cn1 (stereo not drawn)", "viability": "83.1%"}
{"Compound": "CC(C)(C(=O)c1cccnc1)c1cccnc1", "viability": "110%"}
{"Compound": "CNCC(O)c1ccc(OC(=O)C(C)(C)C)c(OC(=O)C(C)(C)C)c1 (stereo not drawn)", "viability": "87.1%"}
{"Compound": "C[C@@H](NCCc1ccc(O)cc1)[C@@H](O)c1ccc(O)cc1 (racemic)", "viability": "111%"}
{"Compound": "O=C1C(O)=C([C@H]2CC[C@H](c3ccc(Cl)cc3)CC2)C(=O)c2ccccc21", "viability": "112%"}
{"Compound": "COc1nc2ccc(Br)cc2cc1[C@@H](c1ccccc1)[C@@](O)(CCN(C)C)c1cccc2ccccc12", "viability": "40.8%"}
{"Compound": "O=C(O)C1=CO[C@@H](O[C@@H]2O[C@H](CO)[C@@H](O)[C@H](O)[C@H]2O)[C@@H]2C(CO)=CC[C@H]12", "viability": "108%"}
{"Compound": "CCC(=O)c1c(O)cc(O)cc1O", "viability": "90.2%"}
{"Compound": "CC1(C)[C@@H](OC(=O)CCC(=O)O)CC[C@]2(C)[C@H]3C(=O)C=C4[C@@H]5C[C@@](C)(C(=O)O)CC[C@]5(C)CC[C@@]4(C)[C@]3(C)CC[C@@H]12", "viability": "98.1%"}
